Measurements gathered from unrelated publications.
Parts stem from different laboratories: compare values within a part only. Substitutions count along the parent as printed.

Series 1
Target: CRIPT, C-terminal peptide
Technique: DHFR complementation, deep sequencing
Matrix: yeast
Setting: single substitutions, model-inferred values
Relative to: wild type
Direction: higher = weaker binding
Starting sequence: ERBIN, PDZ domain 1 (human); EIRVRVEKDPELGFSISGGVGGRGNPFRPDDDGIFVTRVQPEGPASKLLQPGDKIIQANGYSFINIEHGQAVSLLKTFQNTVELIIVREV; partner TKNYKQTSV
For `P51H`, “binding free energy change” read 0.383 kcal/mol.
`E89Q` — result for “binding free energy change”: 0.0684 kcal/mol.
Under “binding free energy change”, `D32M` is recorded as 0.248 kcal/mol.
Under “binding free energy change”, `L12A` is recorded as 0.511 kcal/mol.
`S46N`: “binding free energy change” 0.0269 kcal/mol.
Under “binding free energy change”, `F63N` is recorded as 1.15 kcal/mol.
`E83L`: “binding free energy change” 0.158 kcal/mol.
For `V6E`, “binding free energy change” read 0.908 kcal/mol.
`R28V`: “binding free energy change” -0.115 kcal/mol.
`E1Q` — result for “binding free energy change”: -0.0259 kcal/mol.
`E42P`: “binding free energy change” 0.61 kcal/mol.
For `F27W`, “binding free energy change” read 0.629 kcal/mol.
Under “binding free energy change”, `T37W` is recorded as 0.936 kcal/mol.
Under “binding free energy change”, `V6A` is recorded as 0.488 kcal/mol.
`L48E`: “binding free energy change” 0.119 kcal/mol.
`K76M` — result for “binding free energy change”: 0.432 kcal/mol.
`R38M`: “binding free energy change” 0.0178 kcal/mol.

Series 2
Target: Fragile X messenger ribonucleoprotein 1, C-terminal low-complexity region (Fmr1, Mus musculus, UniProt P35922)
Technique: RNA Bind-n-Seq
Molecule type: RNA
Matrix: in vitro
Tested at: 200 nM
Setting: whole 134-nt RNA, ends assumed
With: 150 mM LiCl
Relative to: input library
Direction: higher = stronger binding
Each molecule: 7-deaza-guanosine replaces G
Shared flanks, not repeated: GGGAGUUCUACAGUCCGACGAUC … UGGAAUUCUCGGGUGUCAAGG
The log2 enrichment of `GGAGUGCCGUGAGCAGGCCGCGGGAACGUCGCCGUCACCUUGUCUCGGGGCCUCGGCGCUGCUUCCCGCCAAAACACGUUUACCGCGCGC` is reported as -2.08.
The log2 enrichment of `UCCUGUGCUACACAUCGUAUGUACCGAAUCGGGGUUUUUGGGGAAAAAGGGGUUUGGGGAAAGUAUUAUGUUACGCCGUUCGGAUCUGCA` is reported as -1.48.
For `UGGGAGGUGGAUUUUGUUUAUUUUUUUAGCUCAUUUCCAGGGGUGGGAAUUUUUUUUUAAUAUUUGUCAUGAAUAAAGUUGUUUUUGAAA`, the log2 enrichment was 0.0292.
For `AAGUCCUGUGCUACACAUCGUAUGUACCGAAUCGGUUUUGGGGUUUUGGUUUUGGGGAAAGUAUUAUGUUACGCCGUUCGGAUCUGCACU`, the log2 enrichment was -1.04.
For `CUCAAGUCCUGUGCUACACAUCGUAUGUACCGAAUCGGGUGGGAAAGGGAGGGAAAGUAUUAUGUUACGCCGUUCGGAUCUGCACUUCCA`, the log2 enrichment was 0.43.
`UUGUAUUAAGACAACGCUCCUCGACUUAGAUGCCUUGGCAAGACAUUUGGCUGACUGUAUUCGAAGGUAAAAUUUGAUGUGAAAUUGACA` has a log2 enrichment of -0.302.
The log2 enrichment of `UCAAGUCCUGUGCUACACAUCGUAUGUACCGAAUCGGCCGGGGCCGGGGCCGGGGAAAGUAUUAUGUUACGCCGUUCGGAUCUGCACUUC` is reported as -0.702.
With `ACCAUGCAGGUGGGCAUCUUUGGGAAGUGGGGCAAGGGGGGGAUAGGGAGGGGGGUAACACUUUGGGAACAGAAAGUCCCAGGUCGUUUC` the log2 enrichment was 1.45.
`ACCAUGCAGGUGGGCAUCUUUGGGAAGUGGGGCAAGGGGGGGAUAGGGAGGGGGGUAACACUUAAAGAACAGGUGGUCCCAGGUCGUUUC` gave a log2 enrichment of 1.36.
`AAGUCCUGUGCUACACAUCGUAUGUACCGAAUCGGGUUUUGGUUUUGGGUUUUGGGGAAAGUAUUAUGUUACGCCGUUCGGAUCUGCACU` has a log2 enrichment of -1.04.
With `UUAGGAAGAGAAGACAAGGUGGCCUCUCAUUAGAAGAAGAGGAAGAGGAGGAUGCCAAUUCAGAAUCUGAGGGAAGCAGUAGUGAGGAGG` the log2 enrichment was -1.48.

Series 3
Target: Interferon regulatory factor 5, full length, phosphomimetic (IRF5, Homo sapiens, UniProt Q13568-2, residues 1-514, K96S/S451D/S453D/S456D/S462D)
Technique: protein-binding microarray
Molecule type: double-stranded DNA, one strand shown
Matrix: in vitro
Tested at: 250 nM
Setting: 60-bp whole probe
With: salmon DNA 0.4 mg/ml
Relative to: random background probes
Direction: higher = stronger binding
Shared flanks, not repeated: GCCTAGCAC … GTCTTGATTCGCTTGACGCTGCTG
With `GACGTACTGGACTATCGGGACGTGCTA` the log fluorescence was 0.718 z-score.
With `TTAGGTATCCTTCTCCTTTTGTGCTAG` the log fluorescence was 0.499 z-score.
`ATGTCTTCCCCTCTCATTCCGTGCTAG` gave a log fluorescence of -0.0864 z-score.
For `GATGATATCGGGTTTCGAGACGTGCTA`, the log fluorescence was 3.89 z-score.
`GACAGTTCCGGTTTCGGGACGTGCTAG` gave a log fluorescence of 6.33 z-score.
For `GACGGTATCCTTCTCCTGAAGTGCTAG`, the log fluorescence was -0.0131 z-score.
`TTAGGTATCGGACTGGTTTAGTGCTAG` gave a log fluorescence of 1.6 z-score.
The log fluorescence of `GACGAACTGGGTCTCGGGACGTGCTAG` is reported as -0.431 z-score.
`TTAGTTATCGGTTTCGGTTAGTGCTAG` gave a log fluorescence of 11 z-score.
With `GACGTACTGGGGTTTCGAGACGTGCTA` the log fluorescence was 0.994 z-score.
The log fluorescence of `TTAGGTATAGGTCTCGGTTAGTGCTAG` is reported as 0.121 z-score.
For `TCATCATTTTCTTTAACACTGTGCTAG`, the log fluorescence was 1.39 z-score.
The log fluorescence of `TTAGGTCTCCTACTGCTTTGGTGCTAG` is reported as -0.211 z-score.
For `GACGAGCTGGGGTATCGAGACGTGCTA`, the log fluorescence was 0.0754 z-score.
With `TTAGAACTAGGGTTTCGATTAGTGCTA` the log fluorescence was 4.92 z-score.
For `GATGGTTTCCTTTTCCTGACGTGCTAG`, the log fluorescence was 1.34 z-score.

Series 4
Target: NFE2L2, bZIP domain (human)
Technique: DHFR protein complementation
Matrix: yeast
Setting: single substitutions, most at no-binding floor
Relative to: wild-type JUN-FOS pair
Direction: higher = stronger binding
Starting sequence: JUN, bZIP domain (human); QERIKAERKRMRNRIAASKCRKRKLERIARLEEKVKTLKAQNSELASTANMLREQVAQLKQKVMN; partner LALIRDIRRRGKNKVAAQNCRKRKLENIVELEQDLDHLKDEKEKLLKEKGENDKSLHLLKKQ
For `L52D`, the binding fitness was -1.46 natural log.
For `L31V`, the binding fitness was -1.33 natural log.
`I28H` has a binding fitness of -1.38 natural log.
With `L38A` the binding fitness was -1.35 natural log.
`V35G` gave a binding fitness of -1.49 natural log.
`A57W` gave a binding fitness of -1.51 natural log.
With `A57M` the binding fitness was -1.55 natural log.
`L45T` has a binding fitness of -1.47 natural log.
With `T48I` the binding fitness was -1.38 natural log.
With `R30F` the binding fitness was -1.46 natural log.
For `R53T`, the binding fitness was -1.57 natural log.
With `L52I` the binding fitness was -1.34 natural log.
For `V35P`, the binding fitness was -1.51 natural log.
`L52H` gave a binding fitness of -1.5 natural log.
The binding fitness of `E33V` is reported as -1.45 natural log.
For `T48Y`, the binding fitness was -1.16 natural log.
`K34C` has a binding fitness of -1.35 natural log.
`V56T` gave a binding fitness of -1.44 natural log.
`Q41D` has a binding fitness of -1.48 natural log.
For `E33M`, the binding fitness was -1.52 natural log.
`E33G` has a binding fitness of -1.39 natural log.

Series 5
Target: Histone acetyltransferase KAT6A, both winged helices, GST fusion (KAT6A, Homo sapiens, UniProt Q92794, residues 1-181)
Technique: protein binding microarray
Molecule type: double-stranded DNA, one strand shown
Matrix: in vitro
Tested at: not given
Setting: 8-mer, flanks averaged, mean of 2 arrays, mostly near background
Relative to: not given
Direction: higher = stronger binding
Target sequence (chain): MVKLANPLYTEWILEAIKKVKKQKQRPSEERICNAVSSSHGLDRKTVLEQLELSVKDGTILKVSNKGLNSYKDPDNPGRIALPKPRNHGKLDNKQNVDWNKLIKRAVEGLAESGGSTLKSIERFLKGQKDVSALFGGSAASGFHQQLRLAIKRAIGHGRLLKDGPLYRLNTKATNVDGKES
For `ACAGTCCT`, the E-score was -0.166.
`CGTCAGTA` gave an E-score of 0.0434.
For `CACTATAA`, the E-score was -0.0414.
For `CGTCCGTA`, the E-score was 0.254.
`CCCTTGAC` has an E-score of -0.0101.
`GAGGATAA` has an E-score of -0.218.
The E-score of `GATTCTAC` is reported as 0.0169.
With `ACGGACGC` the E-score was 0.172.
The E-score of `ACTAAATA` is reported as -0.0448.
For `AAAAGGTC`, the E-score was -0.181.
`AGACGCTC` has an E-score of 0.112.
`ATAAGAAC` has an E-score of -0.00442.
`CCTTGTGA` gave an E-score of 0.0181.
`ACACTGGT` has an E-score of -0.197.
`TGCCCCCA` gave an E-score of -0.22.
For `CCGCAACA`, the E-score was 0.18.
`CGTTAGGC` gave an E-score of 0.152.

Series 6
Target: ABI1, truncated, D143A, DHFR fusion (Arabidopsis thaliana)
Technique: DHFR PCA, deep sequencing
Matrix: yeast
Setting: methotrexate growth selection, single substitutions
With: (+)-ABA 200 µM
Relative to: wild-type fitted maximum
Direction: higher = stronger binding
Starting sequence: PYL1, truncated, DHFR fusion (Arabidopsis thaliana); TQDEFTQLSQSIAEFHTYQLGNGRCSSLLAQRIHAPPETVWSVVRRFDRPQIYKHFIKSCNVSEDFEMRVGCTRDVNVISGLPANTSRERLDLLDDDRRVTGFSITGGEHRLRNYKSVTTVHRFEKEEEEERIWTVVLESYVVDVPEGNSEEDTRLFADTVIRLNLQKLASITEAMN; partner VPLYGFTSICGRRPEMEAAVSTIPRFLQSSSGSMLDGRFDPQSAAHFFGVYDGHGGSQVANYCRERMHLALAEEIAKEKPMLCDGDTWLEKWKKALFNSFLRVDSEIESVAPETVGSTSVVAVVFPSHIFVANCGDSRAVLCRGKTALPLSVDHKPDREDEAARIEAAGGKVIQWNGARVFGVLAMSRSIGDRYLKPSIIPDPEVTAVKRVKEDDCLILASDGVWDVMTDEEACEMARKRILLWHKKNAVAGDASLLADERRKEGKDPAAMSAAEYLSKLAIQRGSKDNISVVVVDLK
`Y18C` — result for “relative binding score”: 81%.
`F47T` — result for “relative binding score”: 1.2%.
`T39N`: “relative binding score” 96.8%.
Under “relative binding score”, `R69P` is recorded as 40.6%.
`L82N`: “relative binding score” 15.5%.
`H110Y` — result for “relative binding score”: 3.71%.
For `H122G`, “relative binding score” read 37.7%.
Under “relative binding score”, `R32S` is recorded as 89.9%.
`E14T` — result for “relative binding score”: 91.6%.
For `E64A`, “relative binding score” read 102%.
`N61M` — result for “relative binding score”: 98%.
Under “relative binding score”, `V136H` is recorded as 50.3%.
`N61T` — result for “relative binding score”: 102%.
`S59F` — result for “relative binding score”: 83.4%.
`L164T` — result for “relative binding score”: 105%.
Under “relative binding score”, `L8R` is recorded as 65.1%.
`V62P`: “relative binding score” 81.2%.
Under “relative binding score”, `R49Q` is recorded as 101%.
`D153Q`: “relative binding score” 82.6%.
For `G107A`, “relative binding score” read 92.1%.
`W134I` — result for “relative binding score”: 103%.
`N85H` — result for “relative binding score”: 101%.
Under “relative binding score”, `E147F` is recorded as 92.5%.

Series 7
Target: CCNB1, cyclin fold, Cln2 fusion (human)
Technique: yeast growth competition, sequencing
Matrix: yeast
Setting: weak parent motif
Relative to: not given
Direction: higher = stronger binding
Starting sequence: WEE2 docking peptide (human); KELRQKLNFSYCE
`KEARQKLNFSYCE [L3A]` — result for “normalised enrichment score”: 0.228.
`KELRQKLNFSYCA [E13A]`: “normalised enrichment score” 0.41.
`KELRAKLNFSYCE [Q5A]` — result for “normalised enrichment score”: 0.189.
`KELRQALNFSYCE [K6A]` — result for “normalised enrichment score”: 0.0339.
For `KELRQKLNFSYAE [C12A]`, “normalised enrichment score” read 0.231.
Under “normalised enrichment score”, `KELAQKLNFSYCE [R4A]` is recorded as 0.355.
Under “normalised enrichment score”, `KELRQKLAFSYCE [N8A]` is recorded as 0.532.

Repeated from above (series 5):
`GAGGATAA` has an E-score of -0.218.
The E-score of `GATTCTAC` is reported as 0.0169.
With `ACGGACGC` the E-score was 0.172.
The E-score of `ACTAAATA` is reported as -0.0448.
For `AAAAGGTC`, the E-score was -0.181.
`AGACGCTC` has an E-score of 0.112.
